Assay results pooled from the literature.
Protocols differ between the studies behind these lines. ± gives the spread as reported.

`CNc1ccccc1C(=O)O[C@H]1C[C@H](n2cnc3c(N)ncnc32)O[C@@H]1COP(=O)(O)OP(=O)(O)O`: “FRET distance difference” ~5 Å (Unconventional myosin-Va (Gallus gallus, UniProt Q02440, D297C/G292C/I296C/S293C/V295G); higher temperatures; reference: without Mg).
For `C[C@H](NC(=O)[C@H](CCCNC(=N)N)NC(=O)[C@H](CCCCN)NC(=O)[C@H](C)NC(=O)[C@H](Cc1c[nH]cn1)NC(=O)[C@H](CO)NC(=O)[C@@H](N)CC(=O)O)C(=O)N[C@@H](Cc1c[nH]cn1)C(=O)NCC(=O)N[C@@H](Cc1ccc(O)cc1)C(=O)N[C@@H](CCCCN)C(=O)N[C@@H](CCCNC(=N)N)C(N)=O`, “log β2 Cu(I)” read 10.1 (pH 7.4, 2:1 peptide:Cu(I) complex, with: ferrozine competitor).
`O=[N+]([O-])c1ccc(/N=N/c2ccc(N(CCS(=O)(=O)O)CCS(=O)(=O)O)cc2)cc1` — result for “UV-vis absorption change”: “no effect” (Cu2+ binding; methanol; concentration not given, with: Cu2+ 0.5 mM, 1 equiv).
`CS(=O)(=O)c1ccc(-c2nnc(/C=C/c3nnc(-c4ccc(C#N)cc4)o3)n2-c2ccccc2Cl)nc1`: reporter activity “decreased” (HEK-293T; TCF/LEF reporter gene, luciferase; concentration not given, 30 h, with: L-Wnt3A conditioned medium).
For `O=c1cc(-c2ccc(O)cc2)oc2cc(O)cc([O][Ga+][O]c3cc(O)cc4oc(-c5ccc(O)cc5)cc(=O)c34)c12`, the inhibition was 53% (Pseudomonas aeruginosa; elastase secretion, elastin-Congo red; 0.08 µM, 20 h).
For `O=c1[nH]c(N2CCC3(CC2)CN(CCO)c2cc(F)cc(F)c23)nc2c1CCCC2`, reporter activity read “decreased” (HEK-293T; TCF/LEF reporter gene, luciferase; concentration not given, 30 h, with: L-Wnt3A conditioned medium).
`C[N+]1(CC(=O)OC2CCCCCCCCCCC2)CCCCC1`: “AR transcriptional activity” “inhibited” (LNCaP expressing AR-V7; inhibitor, luciferase reporter; concentration not given, 8 h).
`O=c1cc(-c2ccccc2)oc2cc(O)cc([O][Ga+][O]c3cc(O)cc4oc(-c5ccccc5)cc(=O)c34)c12` gave an inhibition of 81% (Pseudomonas aeruginosa; elastase secretion, elastin-Congo red; 0.08 µM, 20 h).
For `C[C@H](NC(=O)[C@H](Cc1c[nH]cn1)NC(=O)[C@H](CO)NC(=O)[C@@H](N)CC(=O)O)C(=O)N[C@@H](CCCCN)C(=O)N[C@@H](CCCNC(=N)N)C(=O)N[C@@H](Cc1c[nH]cn1)C(=O)N[C@@H](Cc1c[nH]cn1)C(=O)NCC(=O)N[C@@H](Cc1ccc(O)cc1)C(=O)N[C@@H](CCCCN)C(=O)N[C@@H](CCCNC(=N)N)C(=O)N[C@@H](CCCCN)C(=O)N[C@@H](Cc1ccccc1)C(=O)N[C@@H](Cc1c[nH]cn1)C(=O)N[C@@H](CCC(=O)O)C(=O)N[C@@H](CCCCN)C(=O)N[C@@H](Cc1c[nH]cn1)C(=O)N[C@@H](Cc1c[nH]cn1)C(=O)N[C@@H](CO)C(=O)N[C@@H](Cc1c[nH]cn1)C(=O)N[C@@H](CCCNC(=N)N)C(=O)NCC(=O)N[C@@H](Cc1ccc(O)cc1)C(=O)O`, “log β2 Cu(I)” read 15.4 ± 0.2 (pH 7.4, 1:2 peptide:Cu(I) complex, with: ferrozine competitor).
`CC[C@H](C)[C@H](NC(=O)[C@@H](NC(=O)[C@H](Cc1ccc(O)cc1)NC(=O)[C@H](CCCCN)NC(=O)[C@H](CCCCN)NC(=O)[C@H](CC(C)C)NC(=O)[C@H](CC(=O)O)NC(=O)[C@H](Cc1ccc(O)cc1)NC(=O)[C@H](CCC(N)=O)NC(=O)[C@H](CCCCN)NC(=O)[C@@H](NC(=O)[C@H](Cc1ccccc1)NC(=O)[C@H](CCCCN)NC(=O)[C@H](CCCCN)NC(=O)[C@H](Cc1c[nH]c2ccccc12)NC(=O)[C@H](CCCCN)NC(=O)[C@H](CCSC)NC(=O)[C@H](CCCNC(=N)N)NC(=O)[C@H](CCCNC(=N)N)NC(=O)[C@H](CC(N)=O)NC(=O)[C@H](CCC(N)=O)NC(=O)[C@H](Cc1ccccc1)NC(=O)[C@H](Cc1c[nH]c2ccccc12)NC(=O)[C@@H](NC(=O)[C@H](CCCCN)NC(=O)[C@@H](NC(=O)[C@H](CCC(N)=O)NC(=O)[C@@H](N)CCCNC(=N)N)[C@@H](C)CC)[C@@H](C)CC)[C@@H](C)CC)[C@@H](C)CC)C(=O)O` — result for “maximum caspase-positive parasites”: ~70% (Plasmodium falciparum; caspase-like protease activation; 90 µM, 4 to 12 h).

A few entries again:
For `C[C@H](NC(=O)[C@H](CCCNC(=N)N)NC(=O)[C@H](CCCCN)NC(=O)[C@H](C)NC(=O)[C@H](Cc1c[nH]cn1)NC(=O)[C@H](CO)NC(=O)[C@@H](N)CC(=O)O)C(=O)N[C@@H](Cc1c[nH]cn1)C(=O)NCC(=O)N[C@@H](Cc1ccc(O)cc1)C(=O)N[C@@H](CCCCN)C(=O)N[C@@H](CCCNC(=N)N)C(N)=O`, “log β2 Cu(I)” read 10.1 (pH 7.4, 2:1 peptide:Cu(I) complex, with: ferrozine competitor).
`O=[N+]([O-])c1ccc(/N=N/c2ccc(N(CCS(=O)(=O)O)CCS(=O)(=O)O)cc2)cc1` — result for “UV-vis absorption change”: “no effect” (Cu2+ binding; methanol; concentration not given, with: Cu2+ 0.5 mM, 1 equiv).
